Experimental data of several laboratories.
Lines come from different studies, so protocols differ.
Cell line: human red blood cells

CC[C@H](C)[C@H](NC(=O)[C@H](CCCCN)NC(=O)[C@H](CC(N)=O)NC(=O)[C@H](CC(C)C)NC(=O)[C@H](Cc1ccccc1)NC(=O)[C@H](CCCCN)NC(=O)[C@H](CCCCNC(=N)N)NC(=O)[C@H](CC(C)C)NC(=O)[C@H](CC(C)C)NC(=O)[C@H](CCCCN)NC(=O)[C@H](CCCCNC(=N)N)NC(=O)[C@H](CC(C)C)NC(=O)CNC(C)=O)C(=O)N[C@@H](CCCCN)C(=O)N[C@@H](CCCCNC(=N)N)C(N)=O  HC50 (5 % erythrocyte suspension; 1 h, 37 °C): 452 µM
CC[C@H](C)[C@H](NC(=O)[C@H](C)NC(=O)[C@H](CC(N)=O)NC(=O)[C@H](CCCNC(=N)N)NC(=O)[C@H](CCCNC(=N)N)NC(=O)[C@H](CC(N)=O)NC(=O)[C@H](CCCNC(=N)N)NC(=O)[C@H](CCCNC(=N)N)NC(=O)[C@H](C)NC(=O)[C@@H](NC(=O)[C@H](CO)NC(=O)[C@@H](NC(=O)[C@@H](NC(=O)[C@H](CS)NC(=O)[C@H](CCCCN)NC(=O)[C@@H](N)CCCNC(=N)N)C(C)C)[C@@H](C)CC)C(C)C)C(=O)N[C@@H](CCCCN)C(=O)N[C@H](C(=O)N[C@@H](CC(C)C)C(=O)N[C@@H](CS)C(=O)N[C@@H](CC(N)=O)C(=O)O)[C@@H](C)CC  hemolysis (128 µg/mL, 3 h, 37 °C; reference: Triton X-100): 0.4%
CC(C)C[C@H](N)C(=O)N[C@@H](Cc1c[nH]c2ccccc12)C(=O)NCC(=O)N[C@@H](CCCNC(=N)N)C(=O)N[C@@H](Cc1ccccc1)C(=O)N[C@@H](Cc1ccccc1)C(=O)N[C@@H](CCCNC(=N)N)C(=O)N[C@@H](CCCCN)C(=O)N[C@@H](Cc1ccc(-c2ccccc2)cc1)C(=O)N[C@@H](CCCCN)C(N)=O  HC50 (haemolysis; 1 h, 37 °C): > 200 µM
CC[C@H](C)[C@H](NC(=O)[C@H](CCCNC(=N)N)NC(=O)[C@H](CCCNC(=N)N)NC(=O)[C@H](CCCNC(=N)N)NC(=O)[C@@H](NC(=O)[C@@H](NC(=O)[C@H](C)NC(=O)[C@H](CCCNC(=N)N)NC(=O)[C@H](CCCNC(=N)N)NC(=O)[C@H](CCCNC(=N)N)NC(=O)[C@@H]1CCCN1C(=O)[C@@H](N)CCCNC(=N)N)[C@@H](C)O)[C@@H](C)O)C(=O)N[C@H](C(=O)N[C@H](C(=O)NCC(=O)N[C@H](C(=O)N[C@@H](CCCNC(=N)N)C(=O)N[C@@H](CCCNC(=N)N)C(=O)N[C@@H](CCCNC(=N)N)C(=O)N[C@@H](CCCNC(=N)N)C(N)=O)[C@@H](C)O)[C@@H](C)O)[C@@H](C)O  HC50 (24 h, pH 7.4, 37 °C, 0.25% v/v erythrocytes): > 100 µM
CC[C@H](C)[C@H](NC(=O)[C@H](CCCCN)NC(=O)[C@H](CS)NC(=O)[C@H](CC(N)=O)NC(=O)[C@H](C)NC(=O)[C@H](CCCNC(=N)N)NC(=O)[C@H](CCCNC(=N)N)NC(=O)[C@H](CC(N)=O)NC(=O)[C@H](CCCNC(=N)N)NC(=O)[C@@H](NC(=O)[C@H](CCCNC(=N)N)NC(=O)[C@H](CS)NC(=O)[C@H](CO)NC(=O)[C@@H](NC(=O)[C@@H](NC(=O)[C@H](CS)NC(=O)[C@H](CCCCN)NC(=O)[C@@H](N)CCCNC(=N)N)C(C)C)[C@@H](C)CC)[C@@H](C)CC)C(=O)N[C@@H](CC(C)C)C(=O)N[C@@H](CS)C(=O)N[C@@H](CC(N)=O)C(=O)O  hemolysis (128 µg/mL, 3 h, 37 °C; reference: Triton X-100): 0.62%
CC(C)C[C@@H]1NC(=O)[C@H](CCCCN)NC(=O)CSC[C@@H](C(=O)N[C@@H](CCCCN)C(N)=O)NC(=O)[C@H](CCCCN)NC(=O)[C@H](CC(C)C)NC(=O)[C@H](CC(C)C)NC(=O)[C@@H]2CSCC(=O)N[C@@H](CCCCN)C(=O)N[C@@H](CC(C)C)C(=O)N[C@@H](CCCCN)C(=O)N[C@@H](CCCCNC(=O)[C@H](CCCCN)NC1=O)C(=O)N[C@@H](CCCCN)C(=O)N[C@@H](CC(C)C)C(=O)N[C@@H](CC(C)C)C(=O)N2  minimal haemolytic concentration (4 h, pH 7.4, room temperature): 2000 µg/mL
CC[C@H](C)[C@H](NC(=O)[C@@H](CCCCN)NC(=O)[C@@H](CCCCN)NC(=O)[C@H](Cc1ccccc1)NC(=O)[C@H](CC(C)C)NC(=O)[C@@H](CCCCN)NC(=O)[C@H](Cc1c[nH]c2ccccc12)NC(=O)[C@H](CCCCN)NC(C)=O)C(=O)NCC(=O)N[C@@H](C)C(=O)N[C@H](C(=O)N[C@@H](CC(C)C)C(=O)N[C@H](CCCCN)C(=O)N[C@H](CCCCN)C(=O)N[C@@H](CC(C)C)C(N)=O)C(C)C  hemolysis (64 µM, 1 h, 37 °C; reference: Triton X-100): < 1%
CC[C@H](C)[C@H](NC(=O)[C@H](CCCCN)NC(=O)[C@H](CS)NC(=O)[C@H](CC(N)=O)NC(=O)[C@H](C)NC(=O)[C@H](CCCNC(=N)N)NC(=O)[C@H](CCCNC(=N)N)NC(=O)[C@H](CC(N)=O)NC(=O)[C@H](CCCNC(=N)N)NC(=O)[C@@H](NC(=O)[C@H](CCCNC(=N)N)NC(=O)[C@H](CS)NC(=O)[C@H](CO)NC(=O)[C@@H](NC(=O)[C@H](CCC(N)=O)NC(=O)[C@H](CS)NC(=O)[C@H](CCCCN)NC(=O)[C@@H](N)CCCNC(=N)N)[C@@H](C)CC)[C@@H](C)CC)C(=O)N[C@@H](CO)C(=O)N[C@@H](CS)C(=O)N[C@@H](CC(N)=O)C(=O)O  hemolysis (128 µg/mL, 3 h, 37 °C; reference: Triton X-100): 1.6%
C[C@H](NC(=O)[C@H](CCCNC(=N)N)NC(=O)[C@H](CCCNC(=N)N)NC(=O)[C@@H]1CCCN1C(=O)CNC(=O)[C@H](CCCNC(=N)N)NC(=O)[C@H](CCCNC(=N)N)NC(=O)CN)C(=O)N[C@@H](CC(N)=O)C(=O)N[C@@H](CCC(N)=O)C(=O)N[C@@H](CC(N)=O)C(=O)NCC(=O)N[C@H](C(=O)N[C@@H](CCCNC(=N)N)C(=O)N[C@@H](CCCNC(=N)N)C(=O)N[C@@H](CCCNC(=N)N)C(=O)N[C@@H](CCCNC(=N)N)C(=O)N[C@@H](CCCNC(=N)N)C(=O)N[C@@H](CCCNC(=N)N)C(=O)N[C@H](C(N)=O)[C@@H](C)O)[C@@H](C)O  HC50 (24 h, pH 7.4, 37 °C, 0.25% v/v erythrocytes): > 100 µM
CC(C)C[C@H](NC(=O)[C@H](Cc1ccccc1)NC(=O)[C@H](CCCNC(=N)N)NC(=O)[C@H](CCCCN)NC(=O)[C@H](Cc1ccc(-c2ccccc2)cc1)NC(=O)[C@@H](N)CCCNC(=N)N)C(=O)N[C@@H](CCCNC(=N)N)C(=O)N[C@@H](CC(N)=O)C(=O)N[C@@H](Cc1ccc(-c2ccccc2)cc1)C(=O)N[C@H](C(N)=O)C(C)C  HC50 (haemolysis; 1 h, 37 °C): ~30 µM
CCCCCCCCCC(=O)NCCCC[C@H](NC(=O)[C@H](CCCCN)NC(=O)[C@@H]1CSCC(=O)N[C@@H](CCCCN)C(=O)N[C@@H](CC(C)C)C(=O)N[C@@H](CCCCN)C(=O)NCCCC[C@@H]2NC(=O)[C@H](CCCCN)NC(=O)[C@H](CC(C)C)NC(=O)[C@H](CCCCN)NC(=O)CSC[C@H](NC(=O)[C@H](CC(C)C)NC(=O)[C@H](CC(C)C)NC(=O)[C@H](CCCCN)NC2=O)C(=O)N[C@@H](CC(C)C)C(=O)N[C@@H](CC(C)C)C(=O)N[C@@H](CC(C)C)C(=O)N1)C(N)=O  minimal haemolytic concentration (4 h, pH 7.4, room temperature): 125 µg/mL
CC[C@H](C)[C@H](NC(=O)[C@H](CCCCN)NC(=O)[C@H](CC(N)=O)NC(=O)[C@H](Cc1c[nH]c2ccccc12)NC(=O)[C@H](Cc1ccccc1)NC(=O)[C@H](CCCCN)NC(=O)[C@H](CCCNC(=N)N)NC(=O)[C@H](CC(C)C)NC(=O)[C@H](Cc1c[nH]c2ccccc12)NC(=O)[C@H](CCCCN)NC(=O)[C@H](CCCNC(=N)N)NC(=O)[C@H](CC(C)C)NC(=O)CNC(C)=O)C(=O)N[C@@H](CCCCN)C(=O)N[C@@H](CCCNC(=N)N)C(N)=O  HC50 (5 % erythrocyte suspension; 1 h, 37 °C): 156 µM
CC[C@H](C)[C@H](NC(=O)[C@H](Cc1ccccc1)NC(=O)[C@H](CC(=O)O)NC(=O)[C@H](CCCCN)NC(=O)[C@H](C)NC(=O)[C@H](CCCCN)NC(=O)[C@H](CC(N)=O)NC(=O)[C@H](CC(C)C)NC(=O)[C@H](Cc1c[nH]c2ccccc12)NC(=O)[C@H](CCC(=O)O)NC(=O)[C@H](CCCCN)NC(=O)[C@@H](NC(=O)CNC(=O)[C@H](C)N)[C@@H](C)O)C(=O)N[C@@H](CCCCN)C(=O)N[C@@H](CCC(=O)O)C(=O)N[C@@H](CCCCN)C(=O)NCC(=O)N[C@@H](CC(C)C)C(=O)NCC(=O)N[C@@H](CCSC)C(=O)N[C@@H](CC(C)C)C(=O)N[C@@H](CCCNC(=N)N)C(=O)N[C@@H](C)C(=O)N[C@@H](C)C(=O)N[C@@H](C)C(=O)N[C@@H](CC(N)=O)C(=O)N[C@@H](C)C(=O)N[C@@H](C)C(=O)N[C@@H](CC(C)C)C(=O)N[C@@H](CC(N)=O)C(=O)O  HC50 (1 h): > 150 µM
CC(C)C[C@H](NC(=O)[C@@H]1CSCC(=O)N[C@@H](CCCCN)C(=O)N[C@@H](CC(C)C)C(=O)N[C@@H](CC(C)C)C(=O)N[C@H]2CCCCNC(=O)[C@H](CC(C)C)NC(=O)[C@H](CC(C)C)NC(=O)[C@H](CCCCN)NC(=O)CSC[C@H](NC(=O)[C@H](CC(C)C)NC(=O)[C@H](CC(C)C)NC(=O)[C@H](CCCCN)NC2=O)C(=O)N[C@@H](CCCCN)C(=O)N[C@@H](CCCCN)C(=O)N[C@@H](CCCCN)C(=O)N1)C(N)=O  minimal haemolytic concentration (4 h, pH 7.4, room temperature): 2000 µg/mL

For quick reference, copied from above:
CCCCCCCCCC(=O)NCCCC[C@H](NC(=O)[C@H](CCCCN)NC(=O)[C@@H]1CSCC(=O)N[C@@H](CCCCN)C(=O)N[C@@H](CC(C)C)C(=O)N[C@@H](CCCCN)C(=O)NCCCC[C@@H]2NC(=O)[C@H](CCCCN)NC(=O)[C@H](CC(C)C)NC(=O)[C@H](CCCCN)NC(=O)CSC[C@H](NC(=O)[C@H](CC(C)C)NC(=O)[C@H](CC(C)C)NC(=O)[C@H](CCCCN)NC2=O)C(=O)N[C@@H](CC(C)C)C(=O)N[C@@H](CC(C)C)C(=O)N[C@@H](CC(C)C)C(=O)N1)C(N)=O  minimal haemolytic concentration (4 h, pH 7.4, room temperature): 125 µg/mL
